Results collected from several papers.
Parts stem from different laboratories: compare values within a part only.
Sequence of UniProt Q5VT25 (whole entry, looked up): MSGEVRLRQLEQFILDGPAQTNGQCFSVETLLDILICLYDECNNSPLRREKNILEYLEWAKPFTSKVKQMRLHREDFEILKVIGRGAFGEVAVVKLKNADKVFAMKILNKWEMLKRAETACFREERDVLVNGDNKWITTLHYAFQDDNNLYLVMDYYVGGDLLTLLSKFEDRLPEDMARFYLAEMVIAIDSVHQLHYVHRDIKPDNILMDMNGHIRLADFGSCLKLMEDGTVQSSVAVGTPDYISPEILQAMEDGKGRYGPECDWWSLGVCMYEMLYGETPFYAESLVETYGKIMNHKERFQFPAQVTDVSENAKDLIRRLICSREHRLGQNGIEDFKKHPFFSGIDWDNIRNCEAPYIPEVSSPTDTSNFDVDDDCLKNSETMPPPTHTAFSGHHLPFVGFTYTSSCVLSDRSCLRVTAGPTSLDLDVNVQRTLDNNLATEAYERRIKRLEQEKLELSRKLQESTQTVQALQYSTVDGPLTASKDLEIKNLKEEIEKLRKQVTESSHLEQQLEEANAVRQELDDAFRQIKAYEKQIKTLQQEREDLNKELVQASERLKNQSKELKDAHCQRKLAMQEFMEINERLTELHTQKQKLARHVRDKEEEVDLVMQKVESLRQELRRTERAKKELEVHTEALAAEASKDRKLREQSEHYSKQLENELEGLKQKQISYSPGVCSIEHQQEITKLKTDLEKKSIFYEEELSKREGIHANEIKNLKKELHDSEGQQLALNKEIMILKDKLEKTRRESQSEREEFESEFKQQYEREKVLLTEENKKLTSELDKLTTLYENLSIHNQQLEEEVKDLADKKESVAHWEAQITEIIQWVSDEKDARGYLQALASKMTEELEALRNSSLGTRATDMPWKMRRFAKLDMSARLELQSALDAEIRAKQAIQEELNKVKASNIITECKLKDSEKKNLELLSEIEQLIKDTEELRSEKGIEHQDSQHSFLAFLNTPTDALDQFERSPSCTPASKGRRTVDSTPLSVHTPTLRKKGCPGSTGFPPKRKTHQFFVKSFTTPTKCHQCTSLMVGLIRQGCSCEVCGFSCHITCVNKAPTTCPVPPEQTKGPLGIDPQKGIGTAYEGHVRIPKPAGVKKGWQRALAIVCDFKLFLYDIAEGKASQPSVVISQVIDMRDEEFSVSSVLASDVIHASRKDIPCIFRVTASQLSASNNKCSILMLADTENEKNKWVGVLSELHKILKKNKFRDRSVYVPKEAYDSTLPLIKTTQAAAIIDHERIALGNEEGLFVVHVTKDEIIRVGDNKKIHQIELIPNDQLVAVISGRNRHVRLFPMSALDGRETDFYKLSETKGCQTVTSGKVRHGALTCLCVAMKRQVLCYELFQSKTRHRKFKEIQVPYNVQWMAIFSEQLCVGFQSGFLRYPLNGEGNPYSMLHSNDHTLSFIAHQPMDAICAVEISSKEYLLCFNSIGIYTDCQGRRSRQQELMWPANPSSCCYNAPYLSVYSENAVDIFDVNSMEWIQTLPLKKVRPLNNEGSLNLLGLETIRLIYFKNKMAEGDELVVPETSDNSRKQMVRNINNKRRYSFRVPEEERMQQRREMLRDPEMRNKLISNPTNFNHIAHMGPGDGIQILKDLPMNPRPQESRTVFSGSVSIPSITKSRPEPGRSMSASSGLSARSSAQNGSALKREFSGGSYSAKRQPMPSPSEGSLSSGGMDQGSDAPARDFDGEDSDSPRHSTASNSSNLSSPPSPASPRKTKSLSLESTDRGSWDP

Study 1 — method: RNAcompete; form: RNA; sample: in vitro; concentration: 20 nM; notes: 7-mer, probes averaged, single round; relative to: mean of 7-mers; direction: higher = stronger binding
Target: PABPC1L2, full length, GST fusion (mouse, UniProt A0ABA7IW68)
Residues (chain): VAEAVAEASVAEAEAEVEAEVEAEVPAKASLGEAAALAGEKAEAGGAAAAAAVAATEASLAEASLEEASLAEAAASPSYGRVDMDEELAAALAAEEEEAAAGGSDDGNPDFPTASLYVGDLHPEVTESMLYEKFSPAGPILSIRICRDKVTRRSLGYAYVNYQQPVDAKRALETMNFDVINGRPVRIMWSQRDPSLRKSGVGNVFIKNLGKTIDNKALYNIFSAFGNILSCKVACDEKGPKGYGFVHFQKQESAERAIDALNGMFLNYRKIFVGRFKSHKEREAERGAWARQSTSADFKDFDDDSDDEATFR
The 7-mer Z-score of `GUUAUAA` is reported as 0.0642.
`CUUUUGA` gave a 7-mer Z-score of -0.0337.
With `UUGAGAA` the 7-mer Z-score was 0.218.
The 7-mer Z-score of `UCCUGUG` is reported as -0.38.
`UCGCUAC` has a 7-mer Z-score of -0.409.
`ACACAAG` gave a 7-mer Z-score of 0.191.
For `UACGCUG`, the 7-mer Z-score was -0.38.
`GGGCAUA` has a 7-mer Z-score of 0.283.

Study 2 — method: protein-binding microarray; form: double-stranded DNA, one strand shown; sample: in vitro; concentration: not given; direction: higher = stronger binding
Target: Protein C-ets-1 (ETS1, Homo sapiens, UniProt P14921, residues 1-441, full length assumed)
Sequence of UniProt P14921 (whole entry, looked up): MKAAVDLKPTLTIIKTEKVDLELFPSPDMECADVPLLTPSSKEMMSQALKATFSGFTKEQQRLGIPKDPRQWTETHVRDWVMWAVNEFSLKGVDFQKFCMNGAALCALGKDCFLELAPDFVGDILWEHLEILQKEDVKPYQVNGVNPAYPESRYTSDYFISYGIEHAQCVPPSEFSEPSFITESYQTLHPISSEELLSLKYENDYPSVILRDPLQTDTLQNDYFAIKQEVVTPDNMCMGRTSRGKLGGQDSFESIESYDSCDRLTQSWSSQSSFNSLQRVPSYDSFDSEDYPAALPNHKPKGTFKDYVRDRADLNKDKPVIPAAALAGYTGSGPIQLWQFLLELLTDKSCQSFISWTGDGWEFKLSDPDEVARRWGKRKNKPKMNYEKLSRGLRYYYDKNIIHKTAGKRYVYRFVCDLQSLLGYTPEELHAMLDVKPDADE
Notes: k-mer, scored over probes, only values ≥0.25
The E-score of `ACATCCAA` is reported as 0.25.
The E-score of `CCGGAAAG` is reported as 0.467.
With `ACCGCGGA` the E-score was 0.255.
`CGGATCCG` has an E-score of 0.362.
For `CGCCGGAA`, the E-score was 0.477.
`AAGTTTCC` gave an E-score of 0.352.
With `ACACGGAA` the E-score was 0.269.
With `ATCCGGGC` the E-score was 0.432.

Study 3 — method: RNA Bind-n-Seq; form: RNA; sample: in vitro; concentration: 1 µM; notes: whole 134-nt RNA, ends assumed; with: 150 mM KCl; relative to: input library; direction: higher = stronger binding
Target: Ras GTPase-activating protein-binding protein 1, RRM domain (G3BP1, Homo sapiens, UniProt Q13283)
Sequence of UniProt Q13283 (whole entry, looked up): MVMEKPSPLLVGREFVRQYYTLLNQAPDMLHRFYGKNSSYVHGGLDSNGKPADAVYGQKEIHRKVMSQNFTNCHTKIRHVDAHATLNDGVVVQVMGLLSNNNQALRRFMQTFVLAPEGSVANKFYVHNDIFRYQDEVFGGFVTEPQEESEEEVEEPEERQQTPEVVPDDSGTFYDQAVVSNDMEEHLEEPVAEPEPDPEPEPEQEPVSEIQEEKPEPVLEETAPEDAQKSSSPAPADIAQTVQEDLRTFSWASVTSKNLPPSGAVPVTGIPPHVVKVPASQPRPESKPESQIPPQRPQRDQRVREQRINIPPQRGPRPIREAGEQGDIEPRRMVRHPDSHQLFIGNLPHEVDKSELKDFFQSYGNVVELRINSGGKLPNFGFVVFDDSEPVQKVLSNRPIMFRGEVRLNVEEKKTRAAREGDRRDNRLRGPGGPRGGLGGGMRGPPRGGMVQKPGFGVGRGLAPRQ
`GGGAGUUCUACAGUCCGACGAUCCCUCAAGUCCUGUGCUACACAUCGUAUGUACCGAAUCGGUGGGGUGGGGUGGGAAAGUAUUAUGUUACGCCGUUCGGAUCUGCACUUCCAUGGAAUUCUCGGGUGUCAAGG` has a log2 enrichment of 0.265.
With `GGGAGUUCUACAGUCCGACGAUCGUCCUGUGCUACACAUCGUAUGUACCGAAUCAAACCCCCAAACCCCCCCAAAUUUAAAAAAGUAUUAUGUUACGCCGUUCGGAUCUGCACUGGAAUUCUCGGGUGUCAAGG` the log2 enrichment was -0.0849.
With `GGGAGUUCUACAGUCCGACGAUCUGCUUCUGAGUUGCCCAGGAGACCACUGGCAGAUGUCCCGGCGAAGAGAAGAGACACAUUGUUGGAAGAAGCAGCCCAUGACAGCUCCCCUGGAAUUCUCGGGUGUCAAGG` the log2 enrichment was -0.211.
For `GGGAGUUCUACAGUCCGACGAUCGCAGGAAGUAAAAACAAAUGGAAAUGCUUCGGAUAGUGGCAGGGGUGGGGGUUGCUAACGAAAGGGUGGGAUGGGAGUGGGUAAAGAGUUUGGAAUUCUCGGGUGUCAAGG`, the log2 enrichment was 1.25.
`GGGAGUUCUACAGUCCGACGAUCAGUCCUGUGCUACACAUCGUAUGUACCGAAUCGGGAAAAGGGGAAAAGGGGAAAAGGGAAAGUAUUAUGUUACGCCGUUCGGAUCUGCACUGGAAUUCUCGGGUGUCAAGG` gave a log2 enrichment of 0.573.
The log2 enrichment of `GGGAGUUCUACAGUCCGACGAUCUGUGCUACACAUCGUAUGUACCGAAUCGGGGUUUUUUUGGGGUUUUUUUGGGGUUUUUUUGGGAAAGUAUUAUGUUACGCCGUUCGGAUCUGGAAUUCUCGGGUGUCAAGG` is reported as -0.16.
`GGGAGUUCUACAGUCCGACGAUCUGGAGAUGACAGAAAUGACUGGUGUGUCGCUGAAACGUGGGGCACUGGUUGUCGAAGAUAAUGACAGUGGAGUCCCAGUUGAAGAGACAAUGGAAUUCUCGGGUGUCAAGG` gave a log2 enrichment of -0.207.
`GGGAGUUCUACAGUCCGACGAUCGUCCUGUGCUACACAUCGUAUGUACCGAAUCAAACCCCCCCAAACCCAAACCCCCAAAAAAGUAUUAUGUUACGCCGUUCGGAUCUGCACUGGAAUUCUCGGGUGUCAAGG` gave a log2 enrichment of -0.126.

Further values, each from its own experiment
`O=C1Cc2c([nH]c3ccc(Br)cc23)-c2ccccc2N1` gave a remaining activity of 99% (Serine/threonine-protein kinase MRCK alpha (CDC42BPA, Homo sapiens, UniProt Q5VT25); enzyme activity, inhibitor; 0.5 µM; relative to: control).
